Published values from different studies.
Compare with care: the assays were run in different laboratories. ± gives the spread as reported.

SMILES	species	matrix	route	dose	time	notes	tissue uptake
Cc1cc(O)cc(C)c1C[C@H](NC(=O)[C@@H]1CCCN1C(=O)[C@H](CCCNC(=N)N)NC(=O)[C@H](CCCNC(=N)N)N(C)C(=O)[C@@H]1CCCN1C(=O)[C@@H](CC(C)C)NC(=O)[C@@H](CC(C)C)NC(=O)[C@H](CCCCN)NC(=O)[C@@H](CC(C)C)NC(=O)[C@@H](CC(C)C)NC(=O)CN1CCN(CC(=O)O)CCN(CC(=O)O)CCN(CC(=O)O)CC1)C(=O)N[C@H](C(=O)N[C@@H](CC(C)C)C(=O)O)C(C)(C)C [lutetium-177 labelled]	CF-1 mouse	blood	iv	370 kBq	4 h		0.06 ± 0.08 %ID/g
N=C(N)NCCC[C@@H]1NC(=O)[C@H](CCCCNC(=O)CNC(=O)CNC(=O)CNC(=O)CC[C@H](NC(=O)CNC(=O)CNC(=O)CNC(=O)CN2CCN(CC(=O)O)CCN(CC(=O)O)CCN(CC(=O)O)CC2)C(=O)NCC(=O)NCC(=O)NCC(=O)NCCCC[C@@H]2NC(=O)[C@@H](Cc3ccccc3)NC(=O)[C@H](CC(=O)O)NC(=O)CNC(=O)[C@H](CCCNC(=N)N)NC2=O)NC(=O)[C@@H](Cc2ccccc2)NC(=O)[C@H](CC(=O)O)NC(=O)CNC1=O [copper-64 labelled]	athymic nude mouse, female	whole blood	iv		4 h		0.46 ± 0.15 %ID/g
CC(C)[C@H](NC(=O)[C@@H]1CCCN1C(=O)[C@H](CCCNC(=N)N)NC(=O)[C@H](CS)NC(=O)[C@H](Cc1c[nH]c2ccccc12)NC(=O)[C@H](CCCNC(=N)N)NC(=O)[C@@H](Cc1ccccc1)NC(=O)[C@H](Cc1c[nH]cn1)NC(=O)[C@H](CCC(=O)O)NC(=O)[C@H](CS)NC(=O)[C@H](CS)NC(=O)[C@H](CCCCN)NC(=O)[C@@H]1CC(=O)N[C@@H](CCCNC(=N)N)C(=O)N[C@H](Cc2ccccc2)C(=O)N[C@@H](CC(=O)O)C(=O)N[C@H](Cc2ccc(O)cc2)C(=O)N1)C(N)=O [technetium-99m labelled]	C57 mouse, female	intestine	intravenous	0.037 MBq	2 h		2.58 ± 1.38 %ID
CCCC[C@H](NC(=O)CNC(=O)CNC(=O)CN1CCN(CC(=O)O)CCN(CC(=O)O)CCN(CC(=O)O)CC1)C(=O)N[C@H]1CC(=O)NCCCC[C@@H](C(N)=O)NC(=O)[C@H](Cc2c[nH]c3ccccc23)NC(=O)[C@H](CCCNC(=N)N)NC(=O)[C@@H](Cc2ccccc2)NC(=O)[C@H](Cc2c[nH]cn2)NC1=O [lutetium-177 labelled]	C57 mouse, female	brain	intravenous	0.037 MBq	0.5 h		0.21 ± 0.14 %ID/g
CCCC[C@H](NC(=O)COCCOCCNC(=O)CN1CCN(CC(=O)O)CCN(CC(=O)O)CC1)C(=O)N[C@H]1CC(=O)NCCCC[C@@H](C(N)=O)NC(=O)[C@H](Cc2c[nH]c3ccccc23)NC(=O)[C@H](CCCNC(=N)N)NC(=O)[C@@H](Cc2ccccc2)NC(=O)[C@H](Cc2c[nH]cn2)NC1=O [copper-64 labelled]	C57 mouse	normal organs except kidneys	intravenous	0.37 MBq	2 h		< 2 %ID/g
CC(C)C[C@H](NC(=O)CN1CCN(CC(=O)O)CCN(CC(=O)O)CC1)C(=O)N[C@@H](CC(C)C)C(=O)N[C@@H](CC(C)C)C(=O)N[C@@H](CC(C)C)C(=O)N[C@@H](CCCNC(=N)N)C(=O)N[C@H](C(=O)N[C@@H](CCCCN)C(=O)N[C@@H](CCCNC(=N)N)C(N)=O)C(C)C [copper-64 labelled]	CD1 mouse, male	spleen	intravenous		15 min	blocked, unlabelled peptide 0.1 µmol	1.9 ± 0.2 %ID/g
N=C(N)NCCC[C@@H]1NC(=O)[C@H](CCCCNC(=O)CCOCCOCCOCCOCCNC(=O)CC[C@H](NC(=O)CCOCCOCCOCCOCCNC(=O)CN2CCN(CC(=O)O)CCN(CC(=O)O)CCN(CC(=O)O)CC2)C(=O)NCCOCCOCCOCCOCCC(=O)NCCCC[C@@H]2NC(=O)[C@@H](Cc3ccccc3)NC(=O)[C@H](CC(=O)O)NC(=O)CNC(=O)[C@H](CCCNC(=N)N)NC2=O)NC(=O)[C@@H](Cc2ccccc2)NC(=O)[C@H](CC(=O)O)NC(=O)CNC1=O [copper-64 labelled]	athymic nu/nu mouse, female	liver	intravenous		1 h		2.25 ± 0.26 %ID/g
Cc1cc(O)cc(C)c1C[C@H](NC(=O)[C@@H]1CCCN1C(=O)[C@H](CCCNC(=N)N)NC(=O)[C@H](CCCNC(=N)N)N(C)C(=O)[C@@H]1CCCN1C(=O)[C@@H](CC(C)C)NC(=O)[C@@H](CC(C)C)NC(=O)[C@@H](CC(C)C)NC(=O)[C@@H](CC(C)C)NC(=O)[C@H](CCCCN)NC(=O)CN1CCN(CC(=O)O)CCN(CC(=O)O)CCN(CC(=O)O)CC1)C(=O)N[C@H](C(=O)N[C@@H](CC(C)C)C(=O)O)C(C)(C)C [lutetium-177 labelled]	CF-1 mouse	kidney	iv	370 kBq	1 h		128 ± 13.1 %ID/g
CCCC[C@H](NC(=O)CNC(=O)CNC(=O)CN1CCN(CC(=O)O)CCN(CC(=O)O)CC1)C(=O)N[C@H]1CC(=O)NCCCC[C@@H](C(N)=O)NC(=O)[C@H](Cc2c[nH]c3ccccc23)NC(=O)[C@H](CCCNC(=N)N)NC(=O)[C@@H](Cc2ccccc2)NC(=O)[C@H](Cc2c[nH]cn2)NC1=O [technetium-99m labelled]	C57 mouse	tumor	iv	0.037 MBq	24 h		3.16 ± 2.28 %ID/g
Cc1cc(O)cc(C)c1C[C@H](NC(=O)[C@@H]1CCCN1C(=O)[C@H](CCCNC(=N)N)NC(=O)[C@H](CCCNC(=N)N)N(C)C(=O)[C@@H]1CCCN1C(=O)[C@H](CCCCN)NC(=O)[C@@H](CC(C)C)NC(=O)[C@@H](CC(C)C)NC(=O)[C@@H](CC(C)C)NC(=O)[C@@H](CC(C)C)NC(=O)CN1CCN(CC(=O)O)CCN(CC(=O)O)CCN(CC(=O)O)CC1)C(=O)N[C@H](C(=O)N[C@@H](CC(C)C)C(=O)O)C(C)(C)C [lutetium-177 labelled]	CF-1 mouse	lung	iv	370 kBq	1 h		5.08 ± 1.31 %ID/g
CSCC[C@H](NC(=O)[C@H](CC(C)C)NC(=O)[C@H](Cc1c[nH]cn1)NC(=O)CNC(=O)[C@@H](NC(=O)[C@H](C)NC(=O)[C@H](Cc1c[nH]c2ccccc12)NC(=O)[C@H](CCC(N)=O)NC(=O)CCOCCOCCOCCOCCNC(=O)CN1CCN(CC(=O)O)CCN(CC(=O)O)CCN(CC(=O)O)CC1)C(C)C)C(N)=O [indium-111 labelled]	Swiss nu/nu mouse, male, PC-3 tumour xenograft	pancreas	intravenous	10 pmol	24 h		14.5 ± 2.8 %ID/g

Some of these lines once more:
SMILES	species	matrix	route	dose	time	notes	tissue uptake
CSCC[C@H](NC(=O)[C@H](CC(C)C)NC(=O)[C@H](Cc1c[nH]cn1)NC(=O)CNC(=O)[C@@H](NC(=O)[C@H](C)NC(=O)[C@H](Cc1c[nH]c2ccccc12)NC(=O)[C@H](CCC(N)=O)NC(=O)CCOCCOCCOCCOCCNC(=O)CN1CCN(CC(=O)O)CCN(CC(=O)O)CCN(CC(=O)O)CC1)C(C)C)C(N)=O [indium-111 labelled]	Swiss nu/nu mouse, male, PC-3 tumour xenograft	pancreas	intravenous	10 pmol	24 h		14.5 ± 2.8 %ID/g
